Results collected from several papers.
Each line is one published result; not all experiments were run side by side.

`CC(=O)NC1C(N=C(N)N)C=C(C(=O)OC(C)OC(=O)C(N)C(C)C)OC1C(O)C(O)CO` (mixture of isomers) — result for hydrolysis: “no effect” (Caco-2 homogenate; concentration not given, pH 7.4, 37 °C; baseline: buffer alone).
`C=CC(=O)OCCCOC(C)(C)OCC1OC(n2ccc(N)nc2=O)C(F)(F)C1O` (stereo not shown) gave a hydrolysis half-life of 30.1 min (phosphate buffer, 40% acetonitrile; 50 µM, pH 5.0, 37 °C).
`CCCCCC(O)C=CC1OC2OC(C1CC=CCCCC(=O)O)C2(F)F` (stereo not shown) — result for “hydrolysis rate constant k1′”: 1.01e-06 s⁻¹ (aqueous buffer; pH 2.42).
`COc1ccc(S(=O)(=O)N/N=C/c2ccc(C#N)cc2)cc1OC` has a hydrolysis of ~60% (buffer; concentration not given, time not given, pH 2, 37 °C).
`CCCCCC(O)C=CC1OC2OC(C2F)C1CC=CCCCC(=O)O` (stereo not shown): “hydrolysis rate constant” 3.93e-07 s⁻¹ (50 mM phosphate buffer; pH 7.40, 23 °C).
Under “hydrolysis rate ratio”, `CCC(CC)O[C@@H]1C=C(C(=O)OC(OC(=O)[C@@H](N)C(C)C)C(C)C)C[C@H](NC(=N)N)[C@H]1NC(C)=O` (single isomer, unassigned) is recorded as 15 (HepG2 cell homogenate; baseline: compound over GOC-ISP-Val isomer).
`C=CC(=O)OC1CCC(OC(C)(C)O[C@H]2C[C@H]3OC[C@@]3(OC(C)=O)[C@H]3[C@H](OC(=O)c4ccccc4)[C@]4(O)C[C@H](OC(=O)[C@H](O)[C@@H](NC(=O)c5ccccc5)c5ccccc5)C(C)=C([C@@H](OC(C)=O)C(=O)[C@]23C)C4(C)C)CC1` (stereo partly shown) gave a hydrolysis half-life of 10.2 min (phosphate buffer, 40% acetonitrile; 50 µM, pH 5.0, 37 °C).
`COC(=O)C(Cc1c[nH]cn1)NC(=O)C1(C)C(O)CCC2(C)C1CCC1(C)C2CC=C2C3C(C)C(C)CCC3(C)CCC21C` (stereo not shown): “hydrolysis rate constant” 1.5e-05 s⁻¹ (rat faecal matter in buffer; 37 °C).
For `CCOC(=O)CCC(=O)Oc1ccc(/C=C/C(=O)/C=C(O)/C=C/c2ccc(OC(=O)CCC(=O)OCC)c(OC)c2)cc1OC`, “hydrolysis rate ratio” read 5300 (rat plasma; 1.5 µM; baseline: rat plasma over buffer pH 7.4).
`C=CC(=O)OCCCCCCOC(C)(C)OCC1OC(n2ccc(N)nc2=O)C(F)(F)C1O` (stereo not shown) gave a hydrolysis half-life of 9.2 min (phosphate buffer, 40% acetonitrile; 50 µM, pH 5.0, 37 °C).
